Measured values gathered from unrelated publications.
Compare with care: the assays were run in different laboratories. ± gives the spread as reported.
U2AF2: U2AF2 148-342 (Homo sapiens, UniProt P26368)
UniProt P26368, sequence (whole entry, looked up): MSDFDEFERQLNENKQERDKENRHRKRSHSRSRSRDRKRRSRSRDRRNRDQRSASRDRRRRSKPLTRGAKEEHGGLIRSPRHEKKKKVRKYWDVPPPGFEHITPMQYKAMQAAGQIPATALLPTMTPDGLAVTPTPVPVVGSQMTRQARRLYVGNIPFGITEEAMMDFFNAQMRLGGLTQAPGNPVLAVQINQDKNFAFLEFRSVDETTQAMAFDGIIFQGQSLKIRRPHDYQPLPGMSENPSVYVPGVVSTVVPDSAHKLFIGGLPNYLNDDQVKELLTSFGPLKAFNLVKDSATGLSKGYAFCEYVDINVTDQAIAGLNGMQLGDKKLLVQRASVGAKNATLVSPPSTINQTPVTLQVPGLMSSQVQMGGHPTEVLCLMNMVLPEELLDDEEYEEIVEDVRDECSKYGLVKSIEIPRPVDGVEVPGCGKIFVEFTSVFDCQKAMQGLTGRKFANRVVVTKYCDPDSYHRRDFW
B1: human hnRNP U; sequence looked up; chain SSSPVNVKKLKVSELKEELKKRRLSDKGLKAELMERLQAALDDEEAGGRPAMEPGNGSLDLGGDSAGRSGAGLEQEAAAGGDEEEEEEEEEEEGISALDGDQMELGEENGAAGAADSGPMEEEEAASEDENGDDQGFQEGEDELGDEEEGAGDENGHGEQQPQPPATQQQQPQQQRGAAKEAAGKSSGPTSLFAVTVAPPGARQGQQQAGGKKKAEGGGGGGRPGAPAAGDGKTEQKGGDKKRGVKRPREDHGRGYFEYIEENKYSRAKSPQPPVEEEDEHFDDTVVCLDTYNCDLHFKISRDRLSASSLTMESFAFLWAGGRASYGVSKGKVCFEMKVTEKIPVRHLYTKDIDIHEVRIGWSLTTSGMLLGEEEFSYGYSLKGIKTCNCETEDYGEKFDENDVITCFANFESDEVELSYAKNGQDLGVAFKISKEVLAGRPLFPHVLCHNCAVEFNFGQKEKPYFPIPEEYTFIQNVPLEDRVRGPKGPEEKKDCEVVMMIGLPGAGKTTWVTKHAAENPGKYNILGTNTIMDKMMVAGFKKQMADTGKLNTLLQRAPQCLGKFIEIAARKKRNFILDQTNVSAAAQRRKMCLFAGFQRKAVVVCPKDEDYKQRTQKKAEVEGKDLPEHAVLKMKGNFTLPEVAECFDEITYVELQKEEAQKLLEQYKEESKKALPPEKKQNTGSKKSNKNKSGKNQFNRGGGHRGRGGFNMRGGNFRGGAPGNRGGYNRRGNMPQRGGGGGGSGGIGYPYPRAPVFPGRGSYSNRGNYNRGGMPNRGNYNQNFRGRGNNRGYKNQSQGYNQWQQGQFWGQKPWSQHYHQGYY
B2: phosphofructokinase liver-type, human; sequence looked up; chain AAVDLEKLRASGAGKAIGVLTSGGDAQGMNAAVRAVTRMGIYVGAKVFLIYEGYEGLVEGGENIKQANWLSVSNIIQLGGTIIGSARCKAFTTREGRRAAAYNLVQHGITNLCVIGGDGSLTGANIFRSEWGSLLEELVAEGKISETTARTYSHLNIAGLVGSIDNDFCGTDMTIGTDSALHRIMEVIDAITTTAQSHQRTFVLEVMGRHCGYLALVSALASGADWLFIPEAPPEDGWENFMCERLGETRSRGSRLNIIIIAEGAIDRNGKPISSSYVKDLVVQRLGFDTRVTVLGHVQRGGTPSAFDRILSSKMGMEAVMALLEATPDTPACVVTLSGNQSVRLPLMECVQMTKEVQKAMDDKRFDEATQLRGGSFENNWNIYKLLAHQKPPKEKSNFSLAILNVGAPAAGMNAAVRSAVRTGISHGHTVYVVHDGFEGLAKGQVQEVGWHDVAGWLGRGGSMLGTKRTLPKGQLESIVENIRIYGIHALLVVGGFEAYEGVLQLVEARGRYEELCIVMCVIPATISNNVPGTDFSLGSDTAVNAAMESCDRIKQSASGTKRRVFIVETMGGYCGYLATVTGIAVGADAAYVFEDPFNIHDLKVNVEHMTEKMKTDIQRGLVLRNEKCHDYYTTEFLYNLYSSEGKGVFDCRTNVLGHLQQGGAPTPFDRNYGTKLGVKAMLWLSEKLREVYRKGRVFANAPDSACVIGLKKKAVAFSPVTELKKDTDFEHRMPREQWWLSLRLMLKMLAQYRISMAAYVSGELEHVTRRTLSMDKGF
B3: human aldolase A; sequence looked up; chain PYQYPALTPEQKKELSDIAHRIVAPGKGILAADESTGSIAKRLQSIGTENTEENRRFYRQLLLTADDRVNPCIGGVILFHETLYQKADDGRPFPQVIKSKGGVVGIKVDKGVVPLAGTNGETTTQGLDGLSERCAQYKKDGADFAKWRCVLKIGEHTPSALAIMENANVLARYASICQQNGIVPIVEPEILPDGDHDLKRCQYVTEKVLAAVYKALSDHHIYLEGTLLKPNMVTPGHACTQKFSHEEIAMATVTALRRTVPPAVTGITFLSGGQSEEEASINLNAINKCPLLKPWALTFSYGRALQASALKAWGGKKENLKAAQEEYVKRALANSLACQGKYTPSGQAGAAASESLFVSNHAY
B4: adiponectin; sequence looked up; chain ETTTQGPGVLLPLPKGACTGWMAGIPGHPGHNGAPGRDGRDGTPGEKGEKGDPGLIGPKGDIGETGVPGAEGPRGFPGIQGRKGEPGEGAYVYRSAFSVGLETYVTIPNMPIRFTKIFYNQQNHYDGSTGKFHCNIPGLYYFAYHITVYMKDVKVSLFKKDKAMLFTYDQYQENNVDQASGSVLLHLEVGDQVWLQVYGEGERNGLYADNDNDSTFTGFLLYHDTN

| Substance | tested on | test | system | conditions | scale | endpoint | result |
| --- | --- | --- | --- | --- | --- | --- | --- |
| epoetin alfa | UT7/EPO | RT-qPCR, refers to: CISH | – | concentration not given, 90 min, normalized to HPRT1 | reference: vehicle | mRNA level | 26.5 fold |
| EIDPIPLDY | Jurkat expressing engineered TCR | NFAT-eGFP reporter, fluorescence microscopy | peptide | concentration not given, HLA-A*01:01 on EL4 cells | – | GFP-positive cells | 12% |
| CACUUGAGU (ssRNA) | U2AF2 | sequencing of bound RNA | RNA | motif only | – | Kd | 9.42 µM |
| human ME2 K74H | – | enzyme activity, NADH absorbance | – | with fumarate 3 mM, together with: L-malate varied | – | Hill coefficient | 1.25 ± 0.06 |
| B1 (human hnRNP U) | CYB5R4 knockout human cells | PP4 interaction, 3xFLAG-PP4C IP-MS | – | concentration not given | reference: CYB5R4 KO over parental | log2 fold change | -0.66 |
| Peginesatide | UT7/EPO | tyrosine phosphorylation, LC-MS/MS phosphoproteomics, GluC, refers to: SLC4A7 tyrosine 44 | – | 10 nM, 15 min, together with: 10 U/mL EPO | reference: vehicle | phosphorylation level | 3.7 fold |
| B2 | CYB5R4 knockout human cells | PP6 interaction, 3xFLAG-PP6C IP-MS | – | concentration not given | reference: CYB5R4 KO over parental | log2 fold change | 0.53 |
| GTDHIPYAY | Jurkat expressing engineered TCR | NFAT-eGFP reporter, fluorescence microscopy | peptide | concentration not given, HLA-A*01:01 on EL4 cells | – | GFP-positive cells | 0.471% |
| human EPHA2 | CYB5R4 knockout human cells | PP4 interaction, 3xFLAG-PP4C IP-MS | – | concentration not given | reference: CYB5R4 KO over parental | log2 fold change | -1.92 |
| HQDPIGLKY | Jurkat expressing engineered TCR | NFAT-eGFP reporter, fluorescence microscopy | peptide | concentration not given, HLA-A*01:01 on EL4 cells | – | GFP-positive cells | 0.489% |
| GCCUUUUUA (ssRNA) | U2AF2 | sequencing of bound RNA | RNA | motif only | – | Kd | 4.7 µM |
| QVDPIGQDY | Jurkat expressing engineered TCR | NFAT-eGFP reporter, fluorescence microscopy | peptide | concentration not given, HLA-A*01:01 on EL4 cells | – | GFP-positive cells | 0.562% |
| cullin-4B, human | CYB5R4 knockout human cells | PP4 interaction, 3xFLAG-PP4C IP-MS | – | concentration not given | reference: CYB5R4 KO over parental | log2 fold change | 1.5 |
| ELDILNPSY | Jurkat expressing engineered TCR | NFAT-eGFP reporter, fluorescence microscopy | peptide | concentration not given, HLA-A*01:01 on EL4 cells | – | GFP-positive cells | 0.641% |
| B3 (human aldolase A) | CYB5R4 knockout human cells | PP4 interaction, 3xFLAG-PP4C IP-MS | – | concentration not given | reference: CYB5R4 KO over parental | log2 fold change | 0.44 |
| evodiamine | HUVEC | cytotoxicity | – | – | – | IC50 | 3.7 ± 2.2 µM |
| Malic enzyme 2 S121Q (human) | – | enzyme activity, NADH absorbance | – | without fumarate, together with: L-malate varied | – | Hill coefficient | 1.67 ± 0.07 |
| B4 (adiponectin) | HUVEC | real-time PCR, refers to: E-selectin | – | 15 µg/mL, 24 h, unit not given, together with: TNF-α and IFN-γ | reference: stimulated untreated | mRNA level | 0.69 ± 0.01 |
| MTVCNASQRQAHAQATAVSL | MCF7 | phage binding | peptide | – | reference: targeting over control phage | selectivity ratio | 50 ± 15 |

Repeated from above:
| Substance | tested on | test | system | conditions | scale | endpoint | result |
| --- | --- | --- | --- | --- | --- | --- | --- |
| MTVCNASQRQAHAQATAVSL | MCF7 | phage binding | peptide | – | reference: targeting over control phage | selectivity ratio | 50 ± 15 |
| EIDPIPLDY | Jurkat expressing engineered TCR | NFAT-eGFP reporter, fluorescence microscopy | peptide | concentration not given, HLA-A*01:01 on EL4 cells | – | GFP-positive cells | 12% |
